Results from different studies.
Each line is one published result; not all experiments were run side by side. Several values in a cell are separate wells, animals, samples, runs or records. ± marks the error that the study gave.
Secreted effector protein N-terminal domain: Secreted effector protein, N-terminal domain (Yersinia pestis, UniProt O68720)
cyp121: Mycocyclosin synthase (cyp121, Mycobacterium tuberculosis, UniProt P9WPP7)
UniProt P9WPP7, sequence (whole entry, looked up): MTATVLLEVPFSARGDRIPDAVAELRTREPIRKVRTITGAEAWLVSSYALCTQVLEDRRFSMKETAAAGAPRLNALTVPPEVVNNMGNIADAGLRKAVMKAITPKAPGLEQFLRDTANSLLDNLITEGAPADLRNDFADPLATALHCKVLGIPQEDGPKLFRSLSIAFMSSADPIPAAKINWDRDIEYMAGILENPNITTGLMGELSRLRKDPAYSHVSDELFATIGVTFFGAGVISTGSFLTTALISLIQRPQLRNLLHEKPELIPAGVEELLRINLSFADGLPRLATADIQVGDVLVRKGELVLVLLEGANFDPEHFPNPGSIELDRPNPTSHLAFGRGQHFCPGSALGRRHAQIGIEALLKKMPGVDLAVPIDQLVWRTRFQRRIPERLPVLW
pfo: pfo (Clostridium perfringens, UniProt P0C2E9)
UniProt P0C2E9, sequence (whole entry, looked up): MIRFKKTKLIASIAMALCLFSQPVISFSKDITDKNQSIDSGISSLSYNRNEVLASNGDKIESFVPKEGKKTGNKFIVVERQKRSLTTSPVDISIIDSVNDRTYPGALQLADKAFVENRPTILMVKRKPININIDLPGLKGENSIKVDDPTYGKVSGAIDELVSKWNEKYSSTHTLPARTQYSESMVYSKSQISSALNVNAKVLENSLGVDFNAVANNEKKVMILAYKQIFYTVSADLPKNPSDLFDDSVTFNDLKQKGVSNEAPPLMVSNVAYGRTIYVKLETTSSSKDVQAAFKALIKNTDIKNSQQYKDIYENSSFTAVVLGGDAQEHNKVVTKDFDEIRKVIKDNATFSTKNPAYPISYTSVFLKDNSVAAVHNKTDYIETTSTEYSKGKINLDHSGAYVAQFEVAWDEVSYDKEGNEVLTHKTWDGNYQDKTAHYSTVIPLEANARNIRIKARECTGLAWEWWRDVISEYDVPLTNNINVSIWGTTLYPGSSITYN
UniProt P41143, sequence (whole entry, looked up): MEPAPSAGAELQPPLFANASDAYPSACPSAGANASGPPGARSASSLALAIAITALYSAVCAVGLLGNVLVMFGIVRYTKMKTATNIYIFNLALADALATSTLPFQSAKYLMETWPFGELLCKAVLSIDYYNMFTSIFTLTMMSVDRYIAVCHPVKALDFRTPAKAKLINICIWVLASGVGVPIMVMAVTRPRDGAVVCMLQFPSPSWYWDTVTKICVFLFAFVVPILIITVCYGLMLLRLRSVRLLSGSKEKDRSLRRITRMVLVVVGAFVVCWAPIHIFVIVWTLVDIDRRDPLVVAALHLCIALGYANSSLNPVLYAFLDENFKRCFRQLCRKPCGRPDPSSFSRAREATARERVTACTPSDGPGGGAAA
UniProt P35372, sequence (whole entry, looked up): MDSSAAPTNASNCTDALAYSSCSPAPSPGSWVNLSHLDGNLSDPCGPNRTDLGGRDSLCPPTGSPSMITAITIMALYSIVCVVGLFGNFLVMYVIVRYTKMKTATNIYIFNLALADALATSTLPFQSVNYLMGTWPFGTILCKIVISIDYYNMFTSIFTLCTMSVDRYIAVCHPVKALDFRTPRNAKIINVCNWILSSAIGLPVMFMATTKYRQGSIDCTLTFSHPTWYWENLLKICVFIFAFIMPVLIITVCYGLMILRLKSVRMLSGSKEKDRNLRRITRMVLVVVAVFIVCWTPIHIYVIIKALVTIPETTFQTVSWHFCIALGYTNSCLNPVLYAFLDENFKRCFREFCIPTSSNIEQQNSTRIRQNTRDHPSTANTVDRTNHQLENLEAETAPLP
UniProt Q05323, sequence (whole entry, looked up): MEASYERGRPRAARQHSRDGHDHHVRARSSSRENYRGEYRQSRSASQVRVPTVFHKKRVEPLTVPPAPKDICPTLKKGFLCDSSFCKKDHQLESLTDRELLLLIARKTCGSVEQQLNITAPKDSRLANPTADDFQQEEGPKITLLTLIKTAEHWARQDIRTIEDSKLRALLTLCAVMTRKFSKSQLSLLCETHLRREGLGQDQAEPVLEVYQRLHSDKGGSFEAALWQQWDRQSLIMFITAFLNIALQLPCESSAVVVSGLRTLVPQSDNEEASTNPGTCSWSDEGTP

CC(C)C[C@H](NC(=O)[C@H](CO)NC(=O)[C@H](CCCCN)NC(=O)[C@H](CC(C)C)NC(=O)CNC(=O)[C@H](CCCCN)NC(=O)[C@H](CCC(=O)O)NC(=O)[C@H](C)NC(=O)[C@H](CC(C)C)NC(=O)[C@H](CC(N)=O)NC(=O)[C@@H]1CCCN1C(=O)[C@H](CC(C)C)NC(=O)[C@H](Cc1ccccc1)NC(=O)CNC(=O)[C@H](NC(=O)[C@@H](N)Cc1ccc(O)cc1)[C@H](C)O)C(N)=O  Ki (OPRD1 (Homo sapiens, UniProt P41143); ligand displacement, radioligand; pH 7.5, cell membranes): 15 nM
CC(=O)N[C@@H](CC(=O)O)C(=O)N[C@@H](CCC(=O)O)C(=O)N[C@@H](Cc1ccc(OP(=O)(O)O)cc1)C(=O)N[C@H](C(=O)N[C@@H](CC(=O)O)C(=O)N1CCC[C@H]1C(=O)N[C@@H](Cc1ccccc1)C(N)=O)C1CCCC1  Kd (Secreted effector protein N-terminal domain; biochemical): 0.18 µM
Fc1ccc(F)c(-c2ccc(Cn3ccnc3)c(F)c2)c1  Kd (cyp121; binding): 9.2 ± 2 µM
CC(=O)NC1C(OC2C(O)C(CO)OC(OC3C(O)C(CO)OC(OC4C(O)C(O)OC(CO)C4O)C3NC(C)=O)C2OC2OC(C)C(O)C(O)C2O)OC(CO)C(O)C1O (stereo not drawn)  Kd (pfo; binding): 150 µM
COc1ccc2cc(-c3ccc(Cn4ccnc4)cc3)ccc2c1  Kd (cyp121; binding): 0.6 ± 0.2 µM
CC(C)=CCCC(C)(OC1OC(COC2OC(CO)C(O)C2OC2OCC(O)C(O)C2O)C(O)C(O)C1O)C1CCC2(C)C1C(O)CC1C3(C)CCC(OC4OC(CO)C(O)C(O)C4OC4OC(CO)C(O)C(O)C4O)C(C)(C)C3CCC12C (stereo not drawn)  Kd (Spike glycoprotein, S1 subunit (MERS-CoV, UniProt K9N5Q8); binding): 0.67 µM
CC[C@H](C)[C@H](NC(C)=O)C(=O)N[C@@H](Cc1ccc(OP(=O)(O)O)cc1)C(=O)N[C@H](C(=O)N[C@@H](CC(=O)O)C(=O)N1CCC[C@H]1C(N)=O)C1CCCC1  Kd (Secreted effector protein N-terminal domain; biochemical): 0.52 µM
CC(C)C[C@H](NC(=O)[C@H](CO[C@@H]1O[C@H](CO)[C@@H](O)[C@H](O)[C@H]1O)NC(=O)[C@H](CCCCN)NC(=O)[C@H](CC(C)C)NC(=O)[C@H](C)NC(=O)[C@H](CCCCN)NC(=O)[C@H](CCC(=O)O)NC(=O)CNC(=O)[C@H](CC(C)C)NC(=O)[C@H](CC(N)=O)NC(=O)[C@@H]1CCCN1C(=O)[C@H](CC(C)C)NC(=O)[C@H](Cc1ccccc1)NC(=O)CNC(=O)[C@H](NC(=O)[C@@H](N)Cc1ccc(O)cc1)[C@H](C)O)C(N)=O  Ki (OPRM1 (Homo sapiens, UniProt P35372); radioligand displacement; CHO membranes; 60 min, pH 7.5, 25 °C, added: 0.25 nM [3H]DAMGO): 2.9 ± 0.32 nM
COc1ccc(/C=N/NC(=O)C(C)(C)Oc2ccc(Cl)cc2)c(C(=O)O)c1OC  Kd (uncharacterized protein (Candidatus Liberibacter solanacearum, UniProt A0A094YYW1)): 13.8 µM
CCCCCCCCCCCCCCCC(=O)N[C@@H](CCC(=O)NCCOCCOCCC(=O)NCCOCCOCCC(=O)NCCCC[C@H](NC(=O)[C@H](CC(=O)O)NC(=O)[C@H](CC(C)C)NC(=O)[C@H](Cc1ccc(O)cc1)NC(=O)[C@H](CCCCN)NC(=O)[C@H](CO)NC(=O)[C@H](Cc1ccc(O)cc1)NC(=O)[C@H](CC(=O)O)NC(=O)[C@H](CO)NC(=O)[C@@H](NC(=O)[C@H](Cc1ccccc1)NC(=O)[C@@H](NC(=O)CNC(=O)[C@H](CCC(N)=O)NC(=O)[C@@H](CO)NC(=O)[C@@H](N)Cc1c[nH]cn1)[C@@H](C)O)[C@@H](C)O)C(=O)N[C@@H](CCCNC(=N)N)C(=O)N[C@@H](CCCNC(=N)N)C(=O)N[C@@H](C)C(=O)N[C@@H](CCC(N)=O)C(=O)N[C@@H](CC(=O)O)C(=O)N[C@@H](Cc1ccccc1)C(=O)N[C@H](C(=O)N[C@@H](CCC(N)=O)C(=O)N[C@@H](Cc1c[nH]c2ccccc12)C(=O)N[C@@H](CC(C)C)C(=O)N[C@@H](CC(C)C)C(=O)N[C@@H](CC(N)=O)C(=O)N[C@H](C(=O)NCC(=O)NCC(=O)N1CCC[C@H]1C(=O)N[C@@H](CO)C(=O)N[C@@H](CO)C(=O)NCC(=O)N[C@@H](C)C(=O)N1CCC[C@H]1C(=O)N1CCC[C@H]1C(=O)N1CCC[C@H]1C(=O)N[C@@H](CO)C(N)=O)[C@@H](C)O)C(C)C)C(=O)O  serum enzyme activity (item: ALT; rhesus monkey, female; subcutaneous, 60 µg/kg once daily, 28 days): 56.9 ± 23.8 U/L
CC(=O)NCCCC[C@H](NC(=O)[C@@H](NC(=O)[C@H](CC(C)C)NC(=O)[C@H](CO)NC(C)=O)C(C)C)C(=O)N1CCC[C@H]1C(=O)N[C@@H](CO)C(N)=O  Kd (Bromodomain-containing protein 4, BD1 (BRD4, Homo sapiens, UniProt O60885); binding, NMR; pH 6.8): > 1000 µM
CC(=O)NC1C(OC2C(O)C(O)OC(CO)C2O)OC(CO)C(O)C1OC1OC(CO)C(O)C(OC2OC(CO)C(O)C(O)C2O)C1OC1OC(C)C(O)C(O)C1O (stereo not drawn)  Kd (pfo; binding): 31.6 µM and 32 µM
Cc1ccc(NC(=S)NNc2c([N+](=O)[O-])cc(C(F)(F)F)cc2[N+](=O)[O-])cc1Cl  Kd (Transcriptional activator VP30 (VP30, Zaire ebolavirus, UniProt Q05323); Ebola virus): 65.6 µM
C(=C\c1ccc(-c2ccccc2)cc1)/Cn1ccnc1  Kd (cyp121; binding): 4.3 ± 0.8 µM
O=C(NCCOC(=O)[C@@H]1CCCCN1S(=O)(=O)Cc1ccccc1)c1cccnc1  Kd (Peptidyl-prolyl cis-trans isomerase (Burkholderia pseudomallei, UniProt Q63J95)): 10.6 ± 0.2 µM

Repeated from above:
CC(=O)NC1C(OC2C(O)C(CO)OC(OC3C(O)C(CO)OC(OC4C(O)C(O)OC(CO)C4O)C3NC(C)=O)C2OC2OC(C)C(O)C(O)C2O)OC(CO)C(O)C1O (stereo not drawn)  Kd (pfo; binding): 150 µM
COc1ccc2cc(-c3ccc(Cn4ccnc4)cc3)ccc2c1  Kd (cyp121; binding): 0.6 ± 0.2 µM
